Measurements pooled from the literature.
Protocols differ between the studies behind these lines.

Cc1cc(-c2nnc(N)nc2-c2ccc(F)cc2)cc(Cl)n1
patients with immune-mediated AE (measured: Hypothyroidism; IO-naive colorectal cancer patients; oral, dose not given, treatment-related, grade 1): 0%

Cc1cc(NC2CCN(C(=O)OC3CCN(C(=O)/C=C/CN(C)C)C3)CC2)n2ncc(C(C)C)c2n1 (centres unmarked)
patients with Vomiting (patients with advanced solid tumours; dose not given, QD arm, any grade): 23%

C[C@@H](Nc1cc(F)cc(F)c1)c1cc(C(=O)N(C)C)cc2c(=O)cc(N3CCOCC3)oc12
patients discontinuing for AE (measured: Paresthesia; advanced solid tumour patients; oral, dose not given, dose expansion): 0%

CNC(=O)c1ccc(-c2cnc3ncc(Cc4ccc5ncccc5c4)n3n2)cc1F
patients with adverse event (measured: Cough; cancer patients; oral, 600 mg twice daily, all expansion cohorts, grade 3-4): 0%

COc1cc(Nc2ncc3c(n2)-c2ccc(Cl)cc2C(c2c(F)cccc2OC)=NC3)ccc1C(=O)O
patients with adverse event (measured: Dysgeusia, grade 2; cancer patients, phase 1/2; oral, dose not given, with: pembrolizumab): 4%

FC(F)(F)c1ccc(CNc2ccc(Cc3c[nH]c4ncc(Cl)cc34)cn2)cn1
patients with treatment-related adverse event (measured: alanine aminotransferase increased; patients with TGCT; oral, 1000 mg/day, all grades): 18%

O=C(Nc1nc2cccc(-c3ccc(CN4CCS(=O)(=O)CC4)cc3)n2n1)C1CC1
patients with Anemia (rheumatoid arthritis patients; oral, 100 mg twice daily, 4 weeks, TEAE regardless of relatedness): 0%

CCOc1c([C@H](C)n2nc(C)c3c(N)ncnc32)cc(Cl)c(F)c1[C@@H]1CNC(=O)C1
patients (measured: QTcF above 500 ms; previously treated B-cell malignancy; oral, 20 mg once daily, baseline QTcF ≤450 ms): 0%

Repeated from above:
C[C@@H](Nc1cc(F)cc(F)c1)c1cc(C(=O)N(C)C)cc2c(=O)cc(N3CCOCC3)oc12
patients discontinuing for AE (measured: Paresthesia; advanced solid tumour patients; oral, dose not given, dose expansion): 0%
